Experimental data of several laboratories.
A part holds a random share of what one study measured. Positions count from the first letter of the parent shown.

Sample 1 — technique: protein binding microarray; molecule type: double-stranded DNA, one strand shown; matrix: in vitro; concentration: not given; baseline: not given; reading: higher = stronger binding; quantity: E-score
Target: Histone acetyltransferase KAT6A, both winged helices, GST fusion (KAT6A, Homo sapiens, UniProt Q92794, residues 1-181)
Notes: 8-mer, flanks averaged, mean of 2 arrays, mostly near background
Target sequence (chain): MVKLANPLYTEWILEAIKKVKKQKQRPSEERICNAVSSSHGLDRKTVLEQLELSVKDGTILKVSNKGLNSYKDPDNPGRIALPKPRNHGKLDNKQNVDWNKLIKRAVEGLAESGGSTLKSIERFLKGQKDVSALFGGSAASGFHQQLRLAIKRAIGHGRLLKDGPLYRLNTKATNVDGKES
TGTCCGAA: 0.0091
GAATGAGA: -0.0847
GACTGTGA: -0.191
ATCTCCAC: -0.07
ACACTCTG: -0.219
GTGGCCTA: -0.0973
AAGGAATA: -0.132
CAGATGAA: -0.167
CATGTGGA: -0.0943
ATGTAAAA: -0.0259
GGCGTGAA: 0.0989
CCCGTGTA: 0.143
AAATAATC: -0.00978
GACAAAGA: -0.0634
GGGTGCAC: -0.104
CATCTCGC: 0.0911
ATTAAACC: 0.0688
ACATAACG: 0.0911
AATGTGAA: -0.0585
CGTAGGCA: -0.0546
ATTCCTCG: -0.0581
AAGCTAAC: -0.117
CGCGATGC: 0.284
ATCGAGCG: 0.224
CGCGCTTC: 0.338

Sample 2 — technique: RNA Bind-n-Seq; molecule type: RNA; matrix: in vitro; concentration: 365 nM; baseline: no-protein control; reading: higher = stronger binding; quantity: RBNS enrichment (R)
Target: RNA binding protein fox-1 homolog 2, RRM domain, GST-SBP tag (RBFOX2, Homo sapiens, UniProt O43251-10, residues 100-194)
Notes: natural RNA segment, single round, ends assumed
Shared flanks, not repeated: GGGAGUUCUACAGUCCGACGAUC … UGGAAUUCUCGGGUGCCAA
Residues (chain): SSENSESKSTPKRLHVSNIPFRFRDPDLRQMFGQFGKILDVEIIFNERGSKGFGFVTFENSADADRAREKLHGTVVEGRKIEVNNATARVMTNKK
CAGCCAGUUUUGGUUUAUGCCUAGAGCUACUUCAAGGAACUAGACUAAUUAGCUAUAUAGGCCCAGCGAUGCUUCUUAUUGAUCUUAAUAGUAUGCCCCUCCUUCCCCUG: 0.295
AGGGGAGCUGCUGCUGCCUGCUCAUUCUAGCUUCCGAUUCCAUUCCCAGCCCCUGCGUUAAGGUCCCUGGAGAGGUGGCGUCAGUGGGGGUGAGGAAGGGCAUCUUCCUG: 0.613
AAUAUAUGGCUUUUUCAAAUCAGUUCAGUGAAAAUAGUACAGAUUUAGGUUUACAUAACUACUCUGACAUACUGGAAUUGCAUAUAGAGAUGUUCAGUGGUCGUUUUUCA: 0.4
GGAAAAAGGAUUUCCCUUUAAGGGAGCAAUCUAAGAUAGUCUCUGAAAGGCAGAAAGUUUACAAAUUAGACACUGGGUAUUUUUUAAGAACCUUCAGUGGAAGCAUGUCA: 8.49
AAACUUAGUUCCCAAAUAAAUCAAUCCUGUCUUUCCCAUCUUCGAUGUUGCUAAUAUUAAGGCUUCAGGGCUACUUUUAUCAACAUGCCUGUCUUCAAGAUCCCAGUUUA: 0.93
UGAUGAGGAGUUGGGGCCCUGUCUGUCCUAGGCCUGGAGAGUGCCUGUCUGGGAAAAGGUCACUGGACCUGGAAGGGUCCCCAGGGUCCCCUGACUCCCGUCUCCAUCUG: 0.309
GAGCCAGGGAGCCGAAGCAGUGCUUCAGGGGGUACUGUCACUAAGCCCUCAAGAUACCCUUGUCCCUGAAGUAGGGACUAACUAUAGCACAAGAUAGUAUGUGCCAAUAU: 0.364
AGGAGGGCGAUGUGCGCCCUCUUUCACUUUUUUUCUUCUAGGUCUCCAGGUCCCGGAGGGGAUUUGUGGACCUCUCUUGUCUCCCCACCACUCCAGUGCAUUUCCGCCUG: 0.572
UGUGCUGACAUUAGCAUUCACCCUGUUGGAUAGGUUAGCUUCCCGAGACAUCUCCUUCCACCAUUCCCCACUUCUGCCACCUGCUGCUCUUCUCUGUCCUUAGUUGUGAG: 0.72
AAGAGAACUUCUCAGUCUCCAGGAAGAUAGCAUCUUUUCAUGAGUGUUUGAAUGAAAACAACACGAAGGCUCAAUAUCACAUGGAUUUCCCAGUUUCUGUCUUUAAUAAG: 0.423
CCCUGGGGCCUCUAGUGUAUUGUAUUAUAUUUCUGUGGAAAGUCAUGUUUAGUCAAAUUGGAAUCCACUCACCUGUUCCCUUUGUUUUCCCUAUCCCUUCUCCUGAGCAC: 0.778
GUUGUAGUGGGUUUUGGAGGAGGGAGUGGAGUAAGAUGCCCUCCCACUUUUAUCAGUUUAGUAGUAGUACUGAGAAAAAUCCCUUCAGCUCUAAGAACACUGAAAAAUCC: 0.324

Sample 3 — technique: universal PBM; molecule type: double-stranded DNA, one strand shown; matrix: in vitro; concentration: 600 nM; reading: higher = stronger binding; quantity: E-score
Target: Sal-like protein 4, full length isoform A (SALL4, Homo sapiens, UniProt Q9UJQ4, residues 1-1053)
UniProt Q9UJQ4, sequence (whole entry, looked up): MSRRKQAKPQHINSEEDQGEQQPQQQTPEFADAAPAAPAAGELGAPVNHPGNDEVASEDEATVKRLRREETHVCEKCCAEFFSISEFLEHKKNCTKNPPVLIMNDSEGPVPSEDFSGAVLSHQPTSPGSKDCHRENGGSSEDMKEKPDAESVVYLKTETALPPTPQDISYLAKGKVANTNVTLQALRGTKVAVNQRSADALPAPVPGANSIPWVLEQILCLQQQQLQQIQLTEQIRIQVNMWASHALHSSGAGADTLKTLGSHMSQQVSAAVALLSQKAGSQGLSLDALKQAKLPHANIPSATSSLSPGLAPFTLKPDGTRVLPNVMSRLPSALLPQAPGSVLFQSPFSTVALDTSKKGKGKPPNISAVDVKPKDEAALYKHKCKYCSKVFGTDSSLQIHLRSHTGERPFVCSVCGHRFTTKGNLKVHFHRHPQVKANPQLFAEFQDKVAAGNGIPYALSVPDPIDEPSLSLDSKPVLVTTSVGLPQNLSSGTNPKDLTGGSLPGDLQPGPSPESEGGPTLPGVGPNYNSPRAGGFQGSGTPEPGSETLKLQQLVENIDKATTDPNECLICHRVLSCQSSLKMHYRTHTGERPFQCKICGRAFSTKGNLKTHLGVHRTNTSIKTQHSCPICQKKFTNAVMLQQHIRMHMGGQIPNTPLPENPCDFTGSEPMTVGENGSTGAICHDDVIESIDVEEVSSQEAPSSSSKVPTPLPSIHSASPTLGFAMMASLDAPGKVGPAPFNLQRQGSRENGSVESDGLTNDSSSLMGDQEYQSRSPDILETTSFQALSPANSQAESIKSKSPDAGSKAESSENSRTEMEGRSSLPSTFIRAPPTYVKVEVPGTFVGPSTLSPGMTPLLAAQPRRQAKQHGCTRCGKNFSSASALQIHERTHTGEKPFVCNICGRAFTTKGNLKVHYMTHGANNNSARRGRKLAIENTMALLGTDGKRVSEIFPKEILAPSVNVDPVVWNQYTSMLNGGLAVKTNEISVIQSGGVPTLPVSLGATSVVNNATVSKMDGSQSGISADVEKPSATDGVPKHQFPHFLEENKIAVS
Notes: 8-mer, flanks averaged, mean of replicates
ATTTCAGC: 0.168
ACCTTCCT: -0.151
CAAAAAAG: 0.195
GAGGGAGC: -0.249
GACAAAGC: 0.0196
ACAGGGTG: -0.198
AAACATCT: 0.251
AGTCCTGC: -0.212
TATTGACA: 0.263
ATGATCTC: -0.0367
AGTGATAG: 0.0694
GAACGCTC: -0.217
ATGTAGGC: -0.0138
ATGCCGAG: -0.136
CCCCGCCA: -0.0746
CATCTTAC: 0.0775
AATCGTTG: 0.0837
CCATTCCC: -0.259

Sample 4 — technique: protein-binding microarray; molecule type: double-stranded DNA, one strand shown; matrix: in vitro; concentration: 2540 nM top; notes: 60-bp whole probe; with: salmon DNA 0.4 mg/ml; baseline: random background probes; reading: higher = stronger binding; quantity: fitted relative affinity; shared flanks, not repeated: GCCTAGCAC … GTCTTGATTCGCTTGACGCTGCTG
Target: Interferon regulatory factor 3, full length, phosphomimetic (IRF3, Homo sapiens, UniProt Q14653, residues 1-427, S386D/S396D/S398D/S402D/T404D/S405D)
Construct (chain): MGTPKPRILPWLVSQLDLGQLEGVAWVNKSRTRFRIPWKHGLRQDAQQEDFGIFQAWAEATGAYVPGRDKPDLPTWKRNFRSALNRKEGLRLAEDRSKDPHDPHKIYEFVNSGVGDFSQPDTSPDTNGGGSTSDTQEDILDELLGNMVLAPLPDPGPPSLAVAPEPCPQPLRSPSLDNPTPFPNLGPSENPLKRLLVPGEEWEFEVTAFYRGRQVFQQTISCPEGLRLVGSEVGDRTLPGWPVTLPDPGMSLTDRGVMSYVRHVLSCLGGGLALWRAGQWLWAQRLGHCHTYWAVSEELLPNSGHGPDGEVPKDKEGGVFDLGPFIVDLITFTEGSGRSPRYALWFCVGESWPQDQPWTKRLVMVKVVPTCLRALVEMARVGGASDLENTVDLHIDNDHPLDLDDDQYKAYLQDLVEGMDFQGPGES
GTGTTTTGCCCTATTTAAGAGTGCTAG: 1.28 z-score
CACACTTTCCCCTTCCTAGTGTGCTAG: 3.46 z-score
GACGATCTCAGACTTGAGACGTGCTAG: 0.494 z-score
TGAGGTATCGACTATCGGTTAGTGCTA: 0.157 z-score
TCAGTTCTCCCTTTCAGTTTGTGCTAG: 4.43 z-score
TTAGGTCTCGGCCTGGGTTAGTGCTAG: -0.896 z-score
TTAGGTTTCGGTTTCGCTTAGTGCTAG: 10.8 z-score
TTAGATTTCAGTTCCGACTAGTGCTAG: 3.23 z-score
TTAGATATTAGTCTCGATTAGTGCTAG: 0.191 z-score
GTAGGACTGGGTCTCGGTTAGTGCTAG: -0.882 z-score
ATAGGTTTCGGTTTCGGTTAGTGCTAG: 12.2 z-score
GACGAGTTCAGTCTCGAGACGTGCTAG: 0.25 z-score
TCATATTTACCTCTCACACTGTGCTAG: 0.972 z-score
TGAGGTATCCTACTGCTTTAGTGCTAG: 2.06 z-score
GCTTTTTTTTTTTTTTTTTTGTGCTAG: 1.14 z-score
TTAGATATCGGGTTTGGATTAGTGCTA: 0.288 z-score
TTAGGACTGGGACTGGGTTGGTGCTAG: -1 z-score
GACGGTTTGGACTTTCGGGACGTGCTA: 0.42 z-score
GACGGTCCCCTTCTCCTGACGTGCTAG: 2.98 z-score
GACGATCTCAGTTACGAGACGTGCTAG: 0.649 z-score
TTAGGAATCCTACTGCTTTAGTGCTAG: 0.624 z-score
TCAAACATCATTGTCATACTGTGCTAG: -0.0622 z-score
TTAGTTATCGACTATCGGTTAGTGCTA: 0.665 z-score
GACGGTTTCGACTATCGGGGCGTGCTA: 2.86 z-score

Sample 5 — target: FOS, bZIP domain (human); technique: DHFR protein complementation; matrix: yeast; baseline: wild-type JUN-FOS pair; reading: higher = stronger binding; quantity: binding fitness
Notes: single substitutions, most at no-binding floor
Parent: JUN, bZIP domain (human); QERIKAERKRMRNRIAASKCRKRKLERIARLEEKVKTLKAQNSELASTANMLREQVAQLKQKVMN; partner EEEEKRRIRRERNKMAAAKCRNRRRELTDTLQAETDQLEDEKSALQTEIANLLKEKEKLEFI
A49K: -0.271 natural log
Q41P: -1.37 natural log
K36Y: -0.173 natural log
Q55C: -0.0765 natural log
A49P: -1.27 natural log
S43W: -0.193 natural log
S43Q: 0.0609 natural log
V35T: -0.411 natural log
A46W: -0.304 natural log
K34C: -0.233 natural log
T48Y: 0.0726 natural log
L45E: -1.34 natural log
K34M: -0.186 natural log
E33T: -0.232 natural log
